Published values of several laboratories.
Lines come from different studies, so protocols differ. Several values in a cell are separate wells, animals, samples, runs or records. ± gives the spread as reported.
STING1 H232R: Stimulator of interferon genes protein (STING1, Homo sapiens, UniProt Q86WV6, H232R)

Compound	target or system	test	system	conditions	scale	endpoint	result
Cc1cc(Cl)cc(-c2ccnc3cc(CN4C(=O)C5C(C4=O)C5(C)C)sc23)c1C[C@@H]1CNCCO1 (stereo partly shown)	CHP-212 resistant subline R3	annexin V/PI flow cytometry	–	1 µM, 48 h	–	viable cells	77.7% and 83.2% and 80.9%
CCN(CC)CC(=O)Nc1cccc(-n2cc(-c3ccc4ccc(-c5cn(-c6cccc(NC(=O)CN(CC)CC)c6)nn5)cc4c3)nn2)c1	RCC4	PCR angiogenesis array, measured: EDN1	–	5 x IC50, 2 h, normoxia	baseline: untreated	fold regulation	1.04
CSCC[C@H](NC(=O)[C@H](CCC(N)=O)NC(=O)[C@H](CCCCN)NC(=O)[C@H](CCCNC(=N)N)NC(=O)[C@H](Cc1ccc(O)cc1)NC(=O)[C@H](CCCNC(=N)N)NC(=O)[C@H](CO)NC(=O)[C@H](Cc1ccc(O)cc1)NC(=O)[C@H](CO)NC(=O)[C@H](CC(=O)O)NC(=O)[C@@H](NC(=O)[C@@H](N)Cc1ccccc1)[C@@H](C)O)C(=O)N[C@@H](C)C(=O)N[C@H](C(=O)N[C@@H](CCCCN)C(=O)N[C@@H](CCCCN)C(=O)N[C@@H](Cc1ccc(O)cc1)C(=O)N[C@@H](CC(C)C)C(=O)N[C@@H](C)C(=O)N[C@@H](C)C(=O)N[C@H](C(=O)N[C@@H](CC(C)C)C(=O)NCC(=O)N[C@@H](CCCCN)C(=O)N[C@@H](CCCNC(=N)N)C(=O)N[C@@H](Cc1ccc(O)cc1)C(=O)N[C@@H](CCCCN)C(=O)N[C@@H](CCC(N)=O)C(=O)N[C@@H](CCCCn1cc(C[C@H](NC(=O)CNC(=O)[C@H](CO)NC(=O)[C@H](CCCNC(=N)N)NC(=O)[C@H](CO)NC(=O)[C@H](CC(C)C)NC(=O)[C@H](CC(C)C)NC(=O)CNC(=O)[C@H](C)NC(=O)[C@H](CC(C)C)NC(=O)[C@H](CCCNC(=N)N)NC(=O)[C@H](Cc2c[nH]cn2)NC(=O)[C@@H](NC(=O)[C@@H](N)C(C)C)[C@@H](C)O)C(=O)N[C@H](C(=O)N[C@H](C(=O)N[C@@H](CCCCN)C(=O)N[C@@H](CC(N)=O)C(=O)N[C@@H](CC(N)=O)C(=O)N[C@@H](Cc2ccccc2)C(=O)N[C@H](C(=O)N2CCC[C@H]2C(=O)N[C@H](C(=O)N[C@@H](CC(N)=O)C(=O)N[C@H](C(=O)NCC(=O)N[C@@H](CO)C(=O)N[C@@H](CCCCN)C(=O)N[C@@H](C)C(=O)N[C@@H](Cc2ccccc2)C(N)=O)C(C)C)[C@@H](C)O)C(C)C)C(C)C)C(C)C)nn1)C(=O)N[C@H](C(=O)N[C@@H](CCCCN)C(=O)N[C@@H](CC(N)=O)C(=O)N[C@@H](CCCCN)C(N)=O)C(C)C)C(C)C)C(C)C	transfected COS-7 cells	cAMP accumulation, antagonist	–	added: VIP	–	A2	3.55 µM
CO[C@@H]1[C@@H](OC(N)=O)[C@@H](O)[C@H](Oc2ccc3c(O)c(NC(=O)c4ccc(O)c(CC=C(C)C)c4)c(=O)oc3c2C)OC1(C)C	DLD-1 BRCA2-/-	–	–	250 µM, replicate B	baseline: untreated	colony survival	0.312%
O=C(O)c1ccc(-c2ccc(O)cc2)c2c1C=C(c1ccc(O)cc1)OC2(c1ccc(O)cc1)c1ccc(O)cc1	NCI-H460	annexin V/PI flow cytometry	–	10 µM, 24 h	–	apoptotic cells	14.4%
C[C@@H](Nc1c(-c2c(F)cc(C#N)cc2F)c(Cl)nc2ncnn12)C(C)(C)C	mouse primary cortical neurons	microtubule stabilization, measured: acetylated α-tubulin	–	8 h, added: okadaic acid	–	minimum effective concentration	0.3 µM
COc1ccc(NC(=O)c2ccc3[nH]c(-c4ccc(N(C)C)cc4)nc3c2)cn1	HUVEC primary	Caspase-Glo luminescence	–	8 µM, 16 h, unit not given	baseline: DMSO	caspase-3/7 activity	0.699
CSC(=S)N/N=C(\C)c1ccc(Nc2nnc(-c3ccc(Cl)cc3)c3ccccc23)cc1	HepG2	cell growth or viability, MTT	–	2.5 µM	–	cell death	92.8%
CCC1C(COc2nccc3cc(C(N)=O)c(OC)cc23)NC(=O)C1F (stereo not shown)	U2932	cell growth or viability, WST-1	–	72 h	–	GI50	> 10 µM
CC(C)c1ccc(N(C)c2ccc3c(c2)OCC[C@H]3CNc2cnccc2C(=O)O)cc1	RD	cell growth or viability, ATP luminescence	–	7 days	–	IC50	0.00929 µM
Cc1cccc(-c2cccc(C)n2)n1.Cc1cccc(-c2cccc(C)n2)n1.F[P-](F)(F)(F)(F)F.F[P-](F)(F)(F)(F)F.[Ru+2].c1cc2ccc3ccc(-c4nc5c6cccnc6c6ncccc6c5[nH]4)c4ccc(c1)c2c34	SK-MEL-28	–	–	1% O2, added: green light 523 nm, 100 J/cm2	baseline: dark over light EC50	phototoxicity index	1
COC(=O)c1cc(NC2=NC(=O)C(=Cc3ccc(C)cc3)S2)ccc1OC(C)=O	MCF7	GC-MS, measured: Arachidonic acid	–	1 µM	baseline: DMSO	metabolite level	-0.56 fold change
O=C(N[C@@H](CCCCNC(=O)c1ccc([N+](=O)[O-])o1)c1nc2ccccc2[nH]1)c1ccc(-c2cncnc2)cc1	STING1 H232R	reporter gene, inhibitor	THP1-Dual KI-hSTING-R232	24 h, 1 h preincubation, added: diABZI 500 nM	–	EC50	7.6 µM
O=C(C[Se]C(=O)c1cc2ccccc2s1)Nc1cccc(C(F)(F)F)c1	NCI60 prostate subpanel (PC-3, DU-145)	total growth inhibition, inhibitor	–	five-dose	–	mean TGI	2.96 µM
Cn1ncc2cc(-c3cncc(Cl)c3N3CCC4(CCNC4=O)CC3)ccc21	LS174T	gene expression, microarray, measured: POU2AF1 (BOB1) mRNA	–	concentration not given, 24 h	baseline: untreated cells	log2 fold change	2.45
COc1ccccc1-c1ccncc1C(=O)Nc1nnc(OCc2ccc(Cl)cc2)s1	DLD-1 BRCA2-/-	–	–	0.125 µM, single replicate	–	colony count	39 and 37 and 35 and 45 and 44 and 47
Cc1cc(NC2CCN(C)CC2)ccc1-c1cc2c(N3CCC[C@H](C(=O)N[C@H](C)c4ccccc4)C3)ncnc2[nH]1	NCI-H3122	cell growth or viability, MTT	–	5 µg/mL, 72 h	–	inhibition	89%

Compound	target or system	test	system	conditions	scale	endpoint	result
CC(=O)Oc1ccccc1C(=O)[Se]CC(=O)Nc1cccc(C(F)(F)F)c1	NCI60 prostate subpanel (PC-3, DU-145)	cell growth, inhibitor	–	five-dose	–	GI50	3.66 µM
COC1CN([C@H]2CC[C@H]([C@@]3(C)Oc4c(Cl)cc(C(=O)NCc5c(SC)cc(C)[nH]c5=O)c(C)c4O3)CC2)C1	–	RNA-seq, measured: HECTD2	human, whole blood	dose not given, 24 h	baseline: pretreatment baseline	log2 fold change	1.7
CNS(=O)(=O)Nc1nccc(Cc2c(C)c3ccc(Oc4ncccc4F)cc3oc2=O)c1F	RD	cell viability	–	7 days	–	IC50	0.0165 µM
O=C(C[Se]C(=O)c1ccccc1Nc1ccccc1)Nc1cccc(C(F)(F)F)c1	NCI60 prostate subpanel (PC-3, DU-145)	total growth inhibition, inhibitor	–	five-dose	–	mean TGI	3.46 µM
CC(C)(C)OC(=O)C1=C[C@@](C)(C(=O)OCC#Cc2ccncc2)CCC1=O	HEK293 AP-1 reporter	–	–	concentration not given, unit not given, added: PMA	baseline: PMA alone	AP-1 reporter activity	0.63
[Cl-].[Cl-].[Ru+2].c1ccc(-c2ccccn2)nc1.c1ccc(-c2ccccn2)nc1.c1ccc2cc3nc4c5cccnc5c5ncccc5c4nc3cc2c1	SK-MEL-28	cell viability	–	dark, normoxia 18.5 % oxygen	–	EC50	135 ± 5 µM
Cc1ncsc1-c1ccc(C(C)NC(=O)C2CC(O)CN2C(=O)C(NC(=O)CCCCCCCCCCN2CCCC(Nc3ncc(Cl)c(Nc4ccccc4S(=O)(=O)C(C)C)n3)C2)C(C)(C)C)cc1 (stereo not shown)	22Rv1	RNA-seq, measured: RAB11FIP4 mRNA	–	concentration not given	baseline: DMSO	log2 fold change	-1.21
O=C(C[Se]C(=O)C12CC3CC(CC(C3)C1)C2)Nc1cccc(C(F)(F)F)c1	NCI60 prostate subpanel (PC-3, DU-145)	cell growth, inhibitor	–	five-dose	–	GI50	2.93 µM
Cc1cccc(-c2cccc(C)n2)n1.Cc1cccc(-c2cccc(C)n2)n1.F[P-](F)(F)(F)(F)F.F[P-](F)(F)(F)(F)F.[Ru+2].c1ccc2c(-c3nc4c5cccnc5c5ncccc5c4[nH]3)c3ccccc3cc2c1	SK-MEL-28	cell growth or viability, resazurin	–	dark	–	EC50	65.3 µM
CCOc1cncc(-c2ccc(NC(=O)C3(c4ccnc(NS(=O)(=O)C5CC5)n4)CCOCC3)nc2)n1	ZR-75-1	cell growth or viability, ATP luminescence	–	72 h	–	IC50	10 µM
Cc1[nH][n+]([Pd-2]([Br])([Br])[n+]2[nH]c(C)c(CSC3CCCCC3)c2C)c(C)c1CSC1CCCCC1	Jurkat	cytotoxicity	–	–	baseline: IC50 HEK293 over IC50 Jurkat	selectivity index	4.5
CN1CCCNC(=O)c2cccc(c2)C(=O)NCCCN(C)CCCNc2cccc3c2C(=O)c2cccc(c2C3=O)NCCC1	SAS	RNA-Seq, measured: GVQW2 mRNA	–	1 µM, 6 h	baseline: untreated cells	log2 fold change	2.09
COC1=C2CC(C)CC(OC)C(O)C(C)C=C(C)C(OC(N)=O)C(OC)C=CC=C(C)C(=O)NC(=CC1=O)C2=O (stereo not shown)	Rh30	ChIP-seq, measured: H3K36me3 peak	–	concentration not given, KLF10 non-coding chr8:103658800-103665999	baseline: untreated control	log fold change	-0.885
C#Cc1ccc2nc(C3(NC(=O)c4cc(-c5ccc(F)cc5F)on4)CCN(C(=N)c4ccc([N+](=O)[O-])o4)CC3)[nH]c2c1	STING1 H232R	reporter gene, inhibitor	THP1-Dual KI-hSTING-R232	24 h, 1 h preincubation, added: diABZI 500 nM	–	EC50	1.29 ± 0.1 µM
Cc1cc(NC2CCN(C)CC2)ccc1-c1cc2c(N3CCC[C@H](C(=O)NCc4ccc(OC(F)(F)F)cc4)C3)ncnc2[nH]1	NCI-H3122	cell growth or viability, MTT	–	0.0016 µg/mL, 72 h	–	inhibition	25.3%
O=C(C[Se]C(=O)c1ccccc1Nc1cccc(C(F)(F)F)c1)Nc1cccc(C(F)(F)F)c1	NCI60 prostate subpanel (PC-3, DU-145)	cell growth, inhibitor	–	five-dose	–	GI50	1.56 µM
O=C(N1CCCC1)n1cc(-c2ccc(-c3ccccc3)cc2)nn1	mouse T-cells	N-terminal labelling enrichment, measured: Tfg N-terminal peptides	–	1 nM, 6 h, single tryptic peptide	baseline: DMSO	SILAC ratio	1.13 and 1.27 and 1.1

For quick reference, copied from above:
Compound	target or system	test	system	conditions	scale	endpoint	result
CCOc1cncc(-c2ccc(NC(=O)C3(c4ccnc(NS(=O)(=O)C5CC5)n4)CCOCC3)nc2)n1	ZR-75-1	cell growth or viability, ATP luminescence	–	72 h	–	IC50	10 µM
Cc1[nH][n+]([Pd-2]([Br])([Br])[n+]2[nH]c(C)c(CSC3CCCCC3)c2C)c(C)c1CSC1CCCCC1	Jurkat	cytotoxicity	–	–	baseline: IC50 HEK293 over IC50 Jurkat	selectivity index	4.5
CN1CCCNC(=O)c2cccc(c2)C(=O)NCCCN(C)CCCNc2cccc3c2C(=O)c2cccc(c2C3=O)NCCC1	SAS	RNA-Seq, measured: GVQW2 mRNA	–	1 µM, 6 h	baseline: untreated cells	log2 fold change	2.09
